Experimental data from different studies.
Numbered parts are unrelated; each lists some results of a single study. Positions count from the first letter of the parent shown.

Series 1 — target: CCNB2, cyclin fold, Cln2 fusion (human); technique: yeast growth competition, sequencing; matrix: yeast; notes: weak parent motif; baseline: not given; reading: higher = stronger binding
Starting sequence: SLBP docking peptide (human); ARYKRKLLINDFG
Variant	normalised enrichment score
ARYKRKLDINDFG [L8D]	0.318
PRYKRKLLINDFG [A1P]	0.409
ARYKRKLLINEFG [D11E]	0.802
ARYKRKCLINDFG [L7C]	0.526
ARYKRILLINDFG [K6I]	0.52
ARYKRKLLINDWG [F12W]	0.305
ARYKRKLLLNDFG [I9L]	0.725
ARYKLKLLINDFG [R5L]	0.587
SRYKRKLLINDFG [A1S]	0.755
ARYKRKLLINDFL [G13L]	-0.00441
YRYKRKLLINDFG [A1Y]	0.507
ANYKRKLLINDFG [R2N]	0.53
ARYKRKLLINDFQ [G13Q]	0.443
ARYKRKLLINDFR [G13R]	0.244

Series 2 — technique: universal PBM; form: double-stranded DNA, one strand shown; matrix: in vitro; concentration: 600 nM; reading: higher = stronger binding
Target: Sal-like protein 4, full length isoform A (SALL4, Homo sapiens, UniProt Q9UJQ4, residues 1-1053)
Chain of UniProt Q9UJQ4 (whole entry, looked up): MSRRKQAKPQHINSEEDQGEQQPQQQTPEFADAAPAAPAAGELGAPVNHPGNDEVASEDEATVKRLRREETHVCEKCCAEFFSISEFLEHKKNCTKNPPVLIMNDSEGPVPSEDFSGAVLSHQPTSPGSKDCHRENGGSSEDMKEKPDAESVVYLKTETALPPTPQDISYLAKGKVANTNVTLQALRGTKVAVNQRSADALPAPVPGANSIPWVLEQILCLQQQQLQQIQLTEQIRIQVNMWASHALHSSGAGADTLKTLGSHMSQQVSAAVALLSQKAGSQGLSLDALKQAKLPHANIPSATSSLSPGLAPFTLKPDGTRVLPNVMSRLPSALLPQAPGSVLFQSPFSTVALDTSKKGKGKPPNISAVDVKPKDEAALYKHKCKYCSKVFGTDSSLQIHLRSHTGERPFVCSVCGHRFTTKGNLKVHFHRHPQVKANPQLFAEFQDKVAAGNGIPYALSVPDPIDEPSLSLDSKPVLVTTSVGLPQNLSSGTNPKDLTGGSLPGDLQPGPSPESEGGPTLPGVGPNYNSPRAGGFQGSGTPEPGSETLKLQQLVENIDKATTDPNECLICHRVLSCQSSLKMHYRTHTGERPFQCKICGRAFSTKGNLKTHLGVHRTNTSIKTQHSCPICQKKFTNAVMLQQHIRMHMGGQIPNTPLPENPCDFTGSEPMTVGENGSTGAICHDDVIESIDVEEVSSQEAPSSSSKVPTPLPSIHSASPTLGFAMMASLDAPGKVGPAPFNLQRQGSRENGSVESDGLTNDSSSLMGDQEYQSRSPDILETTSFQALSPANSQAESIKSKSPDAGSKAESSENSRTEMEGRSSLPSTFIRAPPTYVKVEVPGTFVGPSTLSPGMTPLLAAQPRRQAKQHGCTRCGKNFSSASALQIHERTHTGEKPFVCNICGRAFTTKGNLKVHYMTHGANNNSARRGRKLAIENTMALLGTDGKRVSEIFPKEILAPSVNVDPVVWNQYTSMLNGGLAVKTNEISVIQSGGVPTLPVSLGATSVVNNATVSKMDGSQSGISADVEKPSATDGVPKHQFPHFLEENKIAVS
Notes: 8-mer, flanks averaged, mean of replicates
Sequence	E-score
CAAACCCC	-0.16
CACATACC	0.0903
CAAAGCAA	0.137
CTCTCACA	0.0524
CGGTCGCA	-0.241
AGAAGTAC	0.0674
GTAACAGA	0.15
GCTGCAGC	-0.286
CTCACCGA	-0.0992
ATAGATTC	0.237
AGCGCTGG	-0.189
ATGACAGA	0.17
ACTCGTGA	0.00131
CCGCTTCA	-0.205
CTTTAGAC	0.0805
AGCAGCTC	-0.272
CGTTCTAG	-0.0887
ACTCACAA	0.0679
AGGTACGC	-0.21
AATACCTA	0.284
AGGCTGCA	-0.0412
AGGTCACG	-0.345
GCTGGAAA	-0.0678
ATTTGGGG	0.0216
AGGAGATC	-0.0805

Series 3 — technique: protein binding microarray; form: double-stranded DNA, one strand shown; matrix: in vitro; concentration: not given; baseline: not given; reading: higher = stronger binding
Target: Histone acetyltransferase KAT6A, both winged helices, GST fusion (KAT6A, Homo sapiens, UniProt Q92794, residues 1-181)
Notes: 8-mer, flanks averaged, mean of 2 arrays, mostly near background
Target sequence (chain): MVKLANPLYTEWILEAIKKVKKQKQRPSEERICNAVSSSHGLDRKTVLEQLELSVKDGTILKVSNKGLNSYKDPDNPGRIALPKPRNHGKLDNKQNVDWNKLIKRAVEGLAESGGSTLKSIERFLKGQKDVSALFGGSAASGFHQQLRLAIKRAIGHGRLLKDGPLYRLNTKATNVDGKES
Sequence	E-score
GTGCATGA	-0.0192
CCTCAACG	-0.0416
GTTCCGTA	0.206
CGATCAGC	0.0183
AATGAGTC	-0.0446
GCGAAGAC	0.125
AGCATGTC	0.0271
ATTTGCAG	-0.189
AAACGGCA	0.242
ACCGGGCG	0.164
ATCTGATG	-0.157
ACTGCAAG	-0.138
GAGAGGTA	-0.192
GCCTAACA	-0.13
AGACCCAG	-0.211
CCGGCGTA	0.259
AATGGCAA	-0.0459
CACTACCG	0.0697
AACGAGAA	-0.141
CGCGCGGC	0.401
TGCGTGAA	0.159
TCCTACCA	-0.183
AGTGATTG	-0.0936
AGCTATGA	-0.141
AGTCCCAA	-0.265

Series 4 — technique: RNA Bind-n-Seq; form: RNA; matrix: in vitro; concentration: 365 nM; baseline: no-protein control; reading: higher = stronger binding
Target: RNA binding protein fox-1 homolog 2, RRM domain, GST-SBP tag (RBFOX2, Homo sapiens, UniProt O43251-10, residues 100-194)
Notes: natural RNA segment, single round, ends assumed
All sequences stand within: GGGAGUUCUACAGUCCGACGAUC … UGGAAUUCUCGGGUGCCAA
Residues (chain): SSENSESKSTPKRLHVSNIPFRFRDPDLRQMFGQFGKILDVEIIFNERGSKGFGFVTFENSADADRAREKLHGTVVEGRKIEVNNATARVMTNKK
Sequence	RBNS enrichment (R)
CUGCCUGGCAUCUGAUGGGUCAGGUCAAGCCCGUGCUGGUUUUGACUAAGGGUAGAGACUAAGGGGAGACUUGUUUUUCUGAAGUAGACUGCUUUCACUCGGCCUGAUGG	0.394
UCUUUCUGGCCUUUUGGGGGGCAGUGUCUGUGCCAUGCCUAAUAGAUAUGACCAGACGCAUCCUAAGAUGUUGAUUCUUACUGUGUUGUAUAAAAUAAAGUGUAGUUUAC	0.322
AGGGUUGGGCCUGUUGGGGCCAGGUUUGUAAUGUCUCCAAGGGCAUCUGCAGAGAGCUUGGCAGCUCCAGCUCUCCUCAGCAGGCCUCUCCACCCUGAUCUGGCCCCUGU	0.273
CCUCCUCUGGGAUACGGCACUUACACAUGGGAAGAAUGGUACGGGGAAGUGUAACACCUCAGAAAGUGACAAGUGACCAGGAUGGAACAUCAACAACAAUAACAACCAUU	0.747
UGCCCUCUGAAAGAAGGGUUUUCUGUGCUGUGAAAUGCAUAGAACUAUACUUUGCCAUGCACGACUGUUCCUGCAAUUGAUAUUGUGUGAAAUCUGGGAGGGUGGUCUUU	1.1
UAACAGAAGCUUAGGGAACUAAGCAACAUAACAUAUCCAGCAAAAGGCAAGAUUCUAACCUAUACAGCCUGAUGCUAGAGCCUGUGAUGACCACUGUGCUUUGCUACCAA	0.274
UCUCUGUAUCUUUUUUUUACUAUUGUUGUUUUGACCUCAAAGCUGGGAAUAAAAGUCAGAGCCUUACACAUGUCCAGCAAAAACUAUGGUUGGGAUACACCUAUUAUCCC	0.805
UUUUUUUUUUUUUAAAAAAAACAAAAAACAAACGACCAUUUCUCUAAGCCAAGUUUCUUUUAGAGACAUUUUAACUUAUUUAGCUGAACUCUAGAUUUUUUGGUAAACUA	0.578
CAGGCCUCACUCCACCCUGAAUGGACUCGAGCCAUGUAUUCAUUCAGUAAACUGACAUUAUUCUCCCGCUUCGUUCAUGUUUAUUUCACUUGCCUUGGUCAGAGGCCAAG	0.429
UCUUGCUAUCCCUGUGCUAGUUCCAUGUUUUAGAAGCAAAGUGAUACUGGGGAGGAGAGGAGGGCAAGUGAGAGGAGCCAGUGCCUCCUGAAGCCCUUGCUCCACUGCCA	0.435
AAUGCUAUUGAAAAGGUUAACAGAUACAGCUCGGAGUUGUGAGCACUCUACUGCAAGACUUAAAUAGUUCAGUAUAAAUUGUCGUUUUUUUCUUGUGCUGACUAACUAUA	1.03
CUCUUGGUCCUCAUAAUGGGCAAAGGAUACAACGAAGGCAGGUUGUAUAGGGGUUAUAGUGGGGAAGUGGAUAGGGGAUUCAUUUUCUUAUGUGACAUUUUGCCUUAAGA	1.23

Series 5 — technique: competition protein-binding microarray; form: double-stranded DNA, one strand shown; matrix: in vitro; concentration: 2 µM; added: Cbf1 competitor, 0.05 µM; reading: higher = stronger binding; all sequences stand within: … GTCTTGATTCGCTTGACGCTGCTG
Target: Phosphate system positive regulatory protein PHO4, full length, GST-tagged (PHO4, Saccharomyces cerevisiae, UniProt P07270, residues 1-312)
Notes: whole 60-bp probe, lowest competitor level
Residues (chain): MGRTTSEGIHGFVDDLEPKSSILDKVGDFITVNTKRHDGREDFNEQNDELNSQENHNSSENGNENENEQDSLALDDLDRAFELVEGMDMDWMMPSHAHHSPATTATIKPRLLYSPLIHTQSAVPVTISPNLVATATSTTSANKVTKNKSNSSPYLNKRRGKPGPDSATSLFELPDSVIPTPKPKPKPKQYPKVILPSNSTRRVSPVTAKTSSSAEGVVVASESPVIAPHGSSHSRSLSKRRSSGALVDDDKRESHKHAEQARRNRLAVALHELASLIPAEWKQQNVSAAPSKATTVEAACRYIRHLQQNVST
Sequence	fluorescence intensity [a.u.]
TACTTCCGTCGTTTGCACGTTGGCCAGAATGTCTCT	12000
CGTTGCTTATTAAGTGACATGACGCTATTGTATTGT	5080
CTTCTGTAAATTTGACGTGTGGGTGGACGCGCCCCG	5680
CTAACGAAGGTTTGCGTTGTGGGTGACAAGCCAAGT	4910
CGCCTAAGGAAAGAGCCCGTGAAATCATCAACAAGT	4310
TTAATGACTCCGGTGGTCGTGATGGTAATCTTGATA	4750
GTCTTGTCTCATTTTCACGTGCTCTTCCCCACTTCA	13000
CGGGGTTAAGTTTGCGGGGTGGGTGGCTTGCAGCAG	5470
CTTCTGTAAATTTGTAAAGTGGGTGGACGCGCCCCG	4310
CCTAGAGAGCGGCACCACGCGGACTCGACGGCCGCG	8750
ATGCCAAGTAAGGTTTTTCGGATTTAGGGTGGCGTC	3400
CTTCTGTAAATTTGCGGAGTGGGTGGACGCGCCCCG	4370
AAAGCGGTAATTTGAGTCGTGGGTGCAGATATCTAT	7750

For quick reference, copied from above (series 2):
Sequence	E-score
AGCGCTGG	-0.189
ATGACAGA	0.17
ACTCGTGA	0.00131
CCGCTTCA	-0.205
CTTTAGAC	0.0805
AGCAGCTC	-0.272
CGTTCTAG	-0.0887
ACTCACAA	0.0679
AGGTACGC	-0.21
AATACCTA	0.284
